Assay results gathered from unrelated publications.
Numbered parts are unrelated; each lists some results of a single study. Positions count from the first letter of the parent shown.

Study 1
Target: Interferon regulatory factor 5, full length, phosphomimetic (IRF5, Homo sapiens, UniProt Q13568-2, residues 1-514, S451D/S453D/S456D/S462D)
Technique: protein-binding microarray
Molecule type: double-stranded DNA, one strand shown
Matrix: in vitro
Concentration: 940 nM top
Notes: 60-bp whole probe
With: salmon DNA 0.4 mg/ml
Baseline: random background probes
Reading: higher = stronger binding
Shared flanks, not repeated: GCCTAGCAC … GTCTTGATTCGCTTGACGCTGCTG
Strand | fitted relative affinity
TTGGAACTGAGACTGGATTAGTGCTAG | -0.0528 z-score
GACTGACTGCTTCTCCTGACGTGCTAG | 0.268 z-score
TCACTTCCCCATCTTGTACTGTGCTAG | 1.65 z-score
TTAGGTACCGGGTATCGGTTAGTGCTA | 2.95 z-score
TTCTACTTCTCTTTTGGCTTGTGCTAG | 1.61 z-score
TTAGGACTGCTTCTCCTGTAGTGCTAG | -0.158 z-score
TGACTTTTGAGAGATGGAAACGTGCTA | -0.0024 z-score
GACGGTATCGGGTTTCGGCACGTGCTA | 5.4 z-score
CCAAGTTTATACCTTAGGTTGTGCTAG | -0.119 z-score
TTAGGACTGGGACTGGGCTAGTGCTAG | -0.684 z-score
TAAGGTATCGGGACTGGGTTAGTGCTA | 2.39 z-score
GCAGGGTATAGGCATTCCCTGTGCTAG | -0.623 z-score
GACGGTATCCTCCTCCTGACGTGCTAG | 0.59 z-score
TTAGGTATCGGGACTGGGTTTGTGCTA | 4.52 z-score

Study 2
Target: ABI1, truncated, D143A, DHFR fusion (Arabidopsis thaliana)
Technique: DHFR PCA, deep sequencing
Matrix: yeast
Notes: methotrexate growth selection, single substitutions
With: (+)-ABA 0.39 µM
Baseline: wild-type fitted maximum
Reading: higher = stronger binding
Starting sequence: PYL1, truncated, DHFR fusion (Arabidopsis thaliana); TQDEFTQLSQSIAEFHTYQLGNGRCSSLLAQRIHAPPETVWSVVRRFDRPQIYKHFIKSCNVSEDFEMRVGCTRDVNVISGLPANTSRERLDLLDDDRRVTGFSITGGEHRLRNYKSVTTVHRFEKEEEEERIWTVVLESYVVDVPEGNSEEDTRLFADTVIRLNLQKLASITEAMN
Variant | relative binding score [%]
V137R | -8.57
C60G | -6.79
D153P | -17
S117F | -13.3
L28H | -10.6
R88C | 31.9
E67R | 26
E4I | 48.6
N61D | 50.1
K116S | 38.5
E64D | 57.3
E67C | 32.3
L112I | -8.33
E125R | 45
T135D | -4.93
T120S | 75.9
Y141S | -4.77
S9N | 34.4
N22W | 19.7
Y141R | -4.82
R24L | 10.7
D65M | 5.66

Study 3
Target: CCNA1, cyclin fold, Cln2 fusion (human)
Technique: yeast growth competition, sequencing
Matrix: yeast
Notes: weak parent motif
Baseline: not given
Reading: higher = stronger binding
Starting sequence: REV3L docking peptide (human); PPVIIKYIIINRF; partner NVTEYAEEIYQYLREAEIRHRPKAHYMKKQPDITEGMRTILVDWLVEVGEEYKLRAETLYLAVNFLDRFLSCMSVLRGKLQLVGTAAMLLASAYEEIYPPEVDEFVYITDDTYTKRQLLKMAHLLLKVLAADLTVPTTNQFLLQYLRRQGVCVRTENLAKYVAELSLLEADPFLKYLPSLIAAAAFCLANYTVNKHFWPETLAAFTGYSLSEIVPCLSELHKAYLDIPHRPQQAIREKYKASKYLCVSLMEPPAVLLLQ
Variant | normalised enrichment score
Y7A | 0.0978
F13A | 0.706
I4A | 0.0999
K6A | 0.658
N11A | 0.745
R12A | 0.257

Study 4
Target: Ras GTPase-activating protein-binding protein 1, C-terminal RGG region (G3BP1, Homo sapiens, UniProt Q13283)
Chain of UniProt Q13283 (whole entry, looked up): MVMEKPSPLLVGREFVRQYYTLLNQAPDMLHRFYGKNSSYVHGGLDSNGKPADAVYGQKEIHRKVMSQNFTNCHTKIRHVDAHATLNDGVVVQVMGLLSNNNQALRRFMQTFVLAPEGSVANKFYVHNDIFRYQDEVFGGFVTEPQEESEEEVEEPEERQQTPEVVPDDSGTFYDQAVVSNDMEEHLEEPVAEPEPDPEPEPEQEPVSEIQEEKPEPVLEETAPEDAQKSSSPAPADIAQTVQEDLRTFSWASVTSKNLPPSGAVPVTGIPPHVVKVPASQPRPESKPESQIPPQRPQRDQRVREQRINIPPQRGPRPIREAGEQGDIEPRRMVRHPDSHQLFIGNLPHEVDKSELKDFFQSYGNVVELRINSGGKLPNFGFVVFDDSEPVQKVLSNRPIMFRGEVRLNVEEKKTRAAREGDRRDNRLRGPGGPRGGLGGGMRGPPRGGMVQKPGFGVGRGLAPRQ
Technique: RNA Bind-n-Seq
Molecule type: RNA
Matrix: in vitro
Concentration: 1 µM
Notes: whole 134-nt RNA, ends assumed
With: 150 mM KCl
Baseline: input library
Reading: higher = stronger binding
Shared flanks, not repeated: GGGAGUUCUACAGUCCGACGAUC … UGGAAUUCUCGGGUGUCAAGG
Strand | log2 enrichment
UCAAGUCCUGUGCUACACAUCGUAUGUACCGAAUCGGGUUUGGGUUUGGGUUUGGAAAGUAUUAUGUUACGCCGUUCGGAUCUGCACUUC | -1.01
UUUGAUGACAGUCUGCAGGAGCUGCCUGGUGAAGUACCUGGAGGAGAACAACACCUGCCCCACCUGCAGGAUUGUGAUCCACCAGAGCCA | -0.836
AGUCCUGUGCUACACAUCGUAUGUACCGAAUCGGAAAAAAAGGUUUUUUUGGUUUGGAAAGUAUUAUGUUACGCCGUUCGGAUCUGCACU | -2.55
GCAGGAAGUAAAAACAAAUGGAAAAACUUCGGAUAGUGGCAGGGGUGGGGGUUGCUAAGGAAAGGGUGGGAUGGGAGUGGGUAAAGAGUU | 2.14
UUUGAAGGUGAUUUCUGGCCCAAUGUGUUAGAAGAGAGCAUUAAGGAACUAGAACAAGAAGAAGAGGAGAGGAAAAAGGAAGAGAGCACU | -1.49
CAAGUCCUGUGCUACACAUCGUAUGUACCGAAUCGGGAAAAAAAGGGUGGGUGGGAAAGUAUUAUGUUACGCCGUUCGGAUCUGCACUUC | 1.3
UGGGAGGUGGAUUUUGUUUAUUUUUUUAGCUCAUUUCCAGGGGUGGGAAUUUUUUUUUAAUAUGUGUCAUGAGUAAAGUUGUUUUUGAAA | 2.61
CCUGUGCUACACAUCGUAUGUACCGAAUCGGGGUUUUUUGGGGUUUUUUGGGUUUUUUGGGAAAGUAUUAUGUUACGCCGUUCGGAUCUG | -0.869

Study 5
Target: RNA binding protein fox-1 homolog 2, RRM domain, GST-SBP tag (RBFOX2, Homo sapiens, UniProt O43251-10, residues 100-194)
Technique: RNA Bind-n-Seq
Molecule type: RNA
Matrix: in vitro
Concentration: 365 nM
Notes: natural RNA segment, single round, ends assumed
Baseline: no-protein control
Reading: higher = stronger binding
Shared flanks, not repeated: GGGAGUUCUACAGUCCGACGAUC … UGGAAUUCUCGGGUGCCAA
Target sequence (chain): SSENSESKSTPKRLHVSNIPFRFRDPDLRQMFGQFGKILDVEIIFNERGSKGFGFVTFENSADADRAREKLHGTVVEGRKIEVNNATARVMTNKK
Strand | RBNS enrichment (R)
CCAAAGCUGGUAGAGCAGCUAUCAUGCCUCAGGCCAUGGACAUUUGAAUGGGAGCCUCAGGCAUGAUGUGCAGAAAUAGCCUUCUACACCAGGCAGGGACAGGUUGCCUG | 0.935
GGUGCAGAGUAAUUUCUUACUGUGAGGAAUUGCCCAAUGUAUGGAAAGAUGCAUAGUUGGCUCUCACAUGCUAAAUGCCAGUAGCGCCCUCCUUCGCUUGAAGUCAUGAC | 0.43
GUGAAGCGUAAACAUUUAUCCUAUGUGGUUUCUCCUUAGACCUUGGGGUCAUGGUUCAGCAGAGGUUACAUAGGAGCAAAUGGUUCUCAAUUUUCCAGUUUGAUUGAAGU | 0.326
AAGGACUGACUCAAGCUGUGUCUUUCAGACCAAGGAACAUCAGAGAAGCUGUGGGGCUGCCUGCCAGGCAGGAUCAUGGCUGCCAUCAAGCCUUUUCUGGAUCCAGCCAU | 0.251
UUUAAGUCCUCUAAUAAAAAUAAUGAGCCCUCCAAGUCCCUCUUGAUAGCUUCUAUUUGUUAGAAGAUGACCUAAGUCAGAAAAAAGUAGUUCCCCCUUCCUGAGAGACU | 0.228
GUGCGCCAGUUUGGGUUGCCGUUACCAGUUCAAUAUAGCCCUGCAUUUAAAAUUCCUUUUAAGAUUCGUGGAUUUUAUUUUUAUUAAGUAUAUAGAUAUAUAAAGUACUG | 1.37
UCAUCGAACAUUGACGCAGGUGAUGCUACUCUGGAAGGACCUCAGGGCAGCCAGGUGUGCGUGUCUUGAAAUUACUGACUUGAGUUCUUGUAUCACAACUAAUUUCAGCU | 0.387
AGGUCAGCCGAGUAUGGUAGUGCACACCUGUAAUCCUGGCACUCAGGAGACUGAGGCAAGAGCCUCGUAGCAUUAGCUGCAUAGCAAGUUUGAAACCAGUCUGCACUACA | 0.398
CUAUUUACUGUUUACAGCUGGCCAGUGCAGAGCUGCUGCUCUUUUACCUUUUUAGGCCCCUGUAACUUCCCACCUUUAAACUGCCCAGAAGGCAUGCCUCUCCCACAGGA | 1.05
AUUUUAUUUGGCCACCUUCAGGUGAGACUAUCCAUAGACACAUGCUAGGAUAGGCCCCGCUGGGAGGGCAGUUACAGGAGAGAGUAGGUGGUGGUGACGUGAGGGCUGUG | 1.13
AACGACUCUGCCUGCAAGUGGCAAAUACCAACAUAACCACAUCUUCCUUUUAGUUGCCACAAAUAUUCAGUUUUGUUUUAUCCAUCAUGUCCCCCAUAUGCAUGUAAUGA | 61.3
UUUAACAGCCAUGCCUUCUGGAAUCUGGAAGAGGACACCACUCCUGCAGUCACUGGGCAGCCACAUAGCAGCUGCAGGUCCCAGGAGGGCCUGAGGUCAAAGCUGUGGAA | 0.342

Study 6
Target: Sal-like protein 4, full length isoform B (SALL4, Homo sapiens, UniProt Q9UJQ4-2, residues 1-616)
Technique: universal PBM
Molecule type: double-stranded DNA, one strand shown
Matrix: in vitro
Concentration: not given
Notes: 8-mer, flanks averaged, mean of replicates
Reading: higher = stronger binding
Construct (chain): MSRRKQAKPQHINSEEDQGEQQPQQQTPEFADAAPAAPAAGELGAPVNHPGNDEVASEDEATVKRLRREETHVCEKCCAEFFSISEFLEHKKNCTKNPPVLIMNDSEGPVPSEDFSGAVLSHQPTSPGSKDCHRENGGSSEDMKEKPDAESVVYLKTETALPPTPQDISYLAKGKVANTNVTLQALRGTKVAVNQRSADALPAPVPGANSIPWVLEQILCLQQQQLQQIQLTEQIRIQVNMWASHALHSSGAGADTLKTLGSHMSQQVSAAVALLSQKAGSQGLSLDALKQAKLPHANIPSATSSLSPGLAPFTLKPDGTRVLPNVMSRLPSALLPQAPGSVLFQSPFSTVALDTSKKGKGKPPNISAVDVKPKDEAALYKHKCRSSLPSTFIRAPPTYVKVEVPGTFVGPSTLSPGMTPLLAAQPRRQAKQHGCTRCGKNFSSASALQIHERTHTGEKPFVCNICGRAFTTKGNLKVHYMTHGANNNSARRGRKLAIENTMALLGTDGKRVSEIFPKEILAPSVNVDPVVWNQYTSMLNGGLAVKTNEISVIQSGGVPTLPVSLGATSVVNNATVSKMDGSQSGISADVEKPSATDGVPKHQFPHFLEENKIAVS
Strand | E-score
ACCTGGGG | -0.37
AGATCTTC | -0.0341
AATACAGA | 0.228
ATACTCGC | -0.0141
ACCTGGTG | -0.24
CACAGTCG | -0.0914
GAACCCTC | -0.27
CTAACAGC | -0.0841
CAACAGCG | -0.324
GGCTCCCA | -0.368
GGTGAATA | 0.107
GCGACCAA | -0.106
GGAACGAA | -0.0301
AAGCGCGA | -0.118
ACATTTAA | 0.24
ATCATGGC | 0.0508
AGAAGAGA | 0.0111
TAGTTTCA | 0.276
AAGGAGAG | -0.0921
